{"data": "Published values collected from several papers", "organism": "Pseudomonas aeruginosa", "note": "Protocols differ between the studies behind these lines. ± gives the spread as reported."}
{"SMILES": "CC(C)C[C@@H](NC(=O)[C@@H](CCCCN)NC(=O)[C@@H](CCCCNC(=O)[C@@H](CC(C)C)NC(=O)[C@@H](CCCCN)NC(=O)[C@@H](CCCCNC(=O)[C@@H](CC(C)C)NC(=O)[C@@H](CCCCN)NC(=O)[C@@H](CCCCNC(=O)[C@@H](CC(C)C)NC(=O)[C@H](N)CCCCN)NC(=O)[C@@H](CC(C)C)NC(=O)[C@H](N)CCCCN)NC(=O)[C@@H](CC(C)C)NC(=O)[C@@H](CCCCN)NC(=O)[C@@H](CCCCNC(=O)[C@@H](CC(C)C)NC(=O)[C@H](N)CCCCN)NC(=O)[C@@H](CC(C)C)NC(=O)[C@H](N)CCCCN)NC(=O)[C@@H](CC(C)C)NC(=O)[C@@H](CCCCN)NC(=O)[C@@H](CCCCNC(=O)[C@@H](CC(C)C)NC(=O)[C@@H](CCCCN)NC(=O)[C@@H](CCCCNC(=O)[C@@H](CC(C)C)NC(=O)[C@H](N)CCCCN)NC(=O)[C@@H](CC(C)C)NC(=O)[C@H](N)CCCCN)NC(=O)[C@@H](CC(C)C)NC(=O)[C@@H](CCCCN)NC(=O)[C@@H](CCCCNC(=O)[C@@H](CC(C)C)NC(=O)[C@H](N)CCCCN)NC(=O)[C@@H](CC(C)C)NC(=O)[C@H](N)CCCCN)C(N)=O", "assay": "broth microdilution", "system": "PAO1", "setting": "37 °C", "MIC": "4 µg/mL"}
{"SMILES": "COc1ccc2ccc3c(c2c1)C=[N+]1C2CCCCC2[N+]2=Cc4cc(C(C)(C)C)ccc4[O][Au-]21[O]3.F[P-](F)(F)(F)(F)F (stereo not shown)", "assay": "bacterial growth, broth microdilution", "system": "carbapenem-resistant clinical isolate", "setting": "24 h", "MIC": "10 µM"}
{"SMILES": "CC(C)C[C@H](NC(=O)[C@H](CC(C)C)NC(=O)[C@H](CCCCN)NC(=O)[C@@H]1CCCN1C(=O)[C@H](CC(C)C)NC(=O)[C@H](CC(C)C)NC(=O)[C@H](CCCCN)NC(=O)[C@H](CC(C)C)NC(=O)[C@H](CC(C)C)NC(=O)[C@H](CO)NC(=O)CNC(=O)[C@H](Cc1ccccc1)NC(=O)[C@@H](N)Cc1ccccc1)C(N)=O", "assay": "broth microdilution", "MIC": "50 to 100 µM"}
{"SMILES": "CCCCCCCCCCCCCCCCN(C)[C@H](CO)C(=O)N[C@H](C)C(=O)NCC(=O)N(C)[C@@H]1C(=O)N[C@@H](C)C(=O)N[C@H](C(=O)O)Cc2ccc(O)c(c2)-c2cc1ccc2O", "assay": "broth microdilution", "system": "PAO1 wild type", "setting": "24 h, 37 °C, inactive", "MIC": "inactive"}
{"SMILES": "CC1(C)S[C@@H]2[C@H](NC(=O)[C@H](NC(=O)C3=C(O)C(c4ccccc4F)NC3=O)c3ccccc3)C(=O)N2[C@H]1C(=O)O (stereo partly shown)", "assay": "broth microdilution", "system": "PAO1", "setting": "together with: 2,2'-bipyridyl 30 µg/mL and CCCP 50 µg/mL", "MIC": "12.5 µg/mL"}
{"SMILES": "CC[C@@H](C)[C@@H](NC(=O)[C@@H](C)NC(=O)[C@@H](CCCCN)NC(=O)[C@@H](CC(C)C)NC(=O)[C@@H](C)NC(=O)[C@H](NC(=O)[C@@H](Cc1c[nH]cn1)NC(=O)[C@@H](CC(C)C)NC(=O)[C@H](NC(=O)[C@H](NC(=O)[C@@H](CCCCN)NC(=O)[C@H](NC(=O)[C@@H](C)NC(=O)[C@@H](CO)NC(=O)[C@@H](CCCCN)NC(=O)[C@@H](Cc1ccccc1)NC(=O)[C@H](NC(=O)[C@@H](CCCCN)NC(=O)[C@@H](CC(C)C)NC(=O)[C@@H](Cc1ccccc1)NC(=O)[C@@H](CO)NC(=O)[C@@H](CCCCN)NC(=O)[C@@H](Cc1c[nH]c2ccccc12)NC(=O)[C@@H](CCCCN)NC(C)=O)[C@H](C)O)C(C)C)[C@H](C)O)C(C)C)[C@H](C)O)C(=O)N[C@H](CO)C(=O)N[C@H](CO)C(N)=O", "assay": "broth microdilution", "system": "PAO1", "setting": "24 h, 37 °C", "MIC": "1.3 µM"}
{"SMILES": "C=CCOC(=O)c1ccc(NC(=O)c2ccc(NC(=O)c3ccc(NC(=O)C(CC(N)=O)NC(=O)c4ccc(NC(=O)c5ccc([N+](=O)[O-])cc5)cc4)cc3)c(OC(C)C)c2OCC=C)cc1 (stereo not shown)", "assay": "microbial growth", "system": "PA14", "MIC": "> 64 µg/mL"}
{"SMILES": "COc1ccc2ccc3c(c2c1)C=[N+]1C2CCCCC2[N+]2=Cc4c(F)cccc4[O][Au-]21[O]3.F[P-](F)(F)(F)(F)F (stereo not shown)", "assay": "bacterial growth, broth microdilution", "system": "carbapenem-resistant clinical isolate", "setting": "24 h", "MIC": "> 20 µM"}
{"SMILES": "CCn1cc[n+](CC)[c]1[Au-][Cl]", "assay": "broth dilution", "system": "PA7 DSM 24068", "setting": "20 h, 37 °C", "MIC": "85.1 ± 20.1 µM"}
{"SMILES": "Oc1c(Cl)cc(Cl)c2cccnc12", "assay": "microbial growth, agar dilution", "system": "ATCC27853", "MIC": "> 1200 µM"}
{"SMILES": "COc1ccc2ccc3c(c2c1)C=[N+]1C2CCCCC2[N+]2=Cc4c(OC)cccc4[O][Au-]21[O]3.F[P-](F)(F)(F)(F)F (stereo not shown)", "assay": "bacterial growth, broth microdilution", "system": "carbapenem-resistant", "setting": "24 h", "MIC": "20 µM"}
{"SMILES": "CC(C)=CCc1cc(-c2coc3cc(O)c(CC=C(C)C)c(O)c3c2=O)ccc1O", "system": "ATCC 10145", "MIC": "128 µg/mL"}
{"SMILES": "CC(C)C[C@H](NC(=O)[C@H](CC(N)=O)NC(=O)[C@H](CCCNC(=N)N)NC(=O)[C@@H](CC(C)C)NC(=O)[C@H](Cc1ccccc1)NC(=O)[C@H](CC(=O)O)NC(=O)[C@H](CCCCN)NC(=O)[C@@H](CC(C)C)NC(=O)[C@H](CCCNC(=N)N)NC(=O)[C@H](CCC(N)=O)NC(=O)[C@@H](NC(=O)[C@@H](CC(C)C)NC(=O)[C@H](CCCNC(=N)N)NC(=O)[C@H](CCCCN)NC(=O)[C@H](Cc1ccccc1)NC(=O)CN)C(C)C)C(=O)N[C@H](C(N)=O)C(C)C", "assay": "broth microdilution", "system": "PAO1", "MIC": "100 µM"}
{"SMILES": "CC(C)CCCCC(=O)N[C@@H](CCN)C(=O)N[C@H](C(=O)N[C@H](CCN)C(=O)N[C@H]1CCNC(=O)[C@H]([C@@H](C)O)NC(=O)[C@H](CCN)NC(=O)[C@H](CCN)NC(=O)[C@H]([C@@H](C)O)NC(=O)[C@@H](CC(C)C)NC(=O)[C@H](CCN)NC1=O)[C@@H](C)O", "assay": "broth microdilution", "system": "ATCC 27853, polymyxin susceptible, CAMHB", "setting": "18 h, 37 °C", "MIC": "0.5 µg/mL"}
{"SMILES": "COc1ccc2ccc3c(c2c1)C=[N+]1C2CCCCC2[N+]2=Cc4cc(C(C)(C)C)cc(C(C)(C)C)c4[O][Au-]21[O]3.F[P-](F)(F)(F)(F)F (stereo not shown)", "assay": "bacterial growth, broth microdilution", "system": "carbapenem-resistant clinical isolate", "setting": "24 h", "MIC": "> 20 µM"}
{"SMILES": "CSCC[C@H](NC(=O)[C@H](CCCNC(=N)N)NC(=O)[C@H](Cc1c[nH]c2ccccc12)NC(=O)[C@H](CCC(N)=O)NC(=O)[C@H](Cc1c[nH]c2ccccc12)NC(=O)[C@H](CCCNC(=N)N)NC(=O)[C@@H](N)CCCNC(=N)N)C(=O)N[C@@H](CCCCN)C(=O)N[C@@H](CCCCN)C(=O)N[C@@H](CC(C)C)C(=O)NCC(=O)NCCCC[C@H](NC(=O)CNC(=O)[C@H](CC(C)C)NC(=O)[C@H](CCCCN)NC(=O)[C@H](CCCCN)NC(=O)[C@H](CCSC)NC(=O)[C@H](CCCNC(=N)N)NC(=O)[C@H](Cc1c[nH]c2ccccc12)NC(=O)[C@H](CCC(N)=O)NC(=O)[C@H](Cc1c[nH]c2ccccc12)NC(=O)[C@H](CCCNC(=N)N)NC(=O)[C@@H](N)CCCNC(=N)N)C(=O)NCCCCCC(=O)N[C@@H](CSSC[C@H](NC(=O)CCCCCNC(=O)[C@H](CCCCNC(=O)CNC(=O)[C@H](CC(C)C)NC(=O)[C@H](CCCCN)NC(=O)[C@H](CCCCN)NC(=O)[C@H](CCSC)NC(=O)[C@H](CCCNC(=N)N)NC(=O)[C@H](Cc1c[nH]c2ccccc12)NC(=O)[C@H](CCC(N)=O)NC(=O)[C@H](Cc1c[nH]c2ccccc12)NC(=O)[C@H](CCCNC(=N)N)NC(=O)[C@@H](N)CCCNC(=N)N)NC(=O)CNC(=O)[C@H](CC(C)C)NC(=O)[C@H](CCCCN)NC(=O)[C@H](CCCCN)NC(=O)[C@H](CCSC)NC(=O)[C@H](CCCNC(=N)N)NC(=O)[C@H](Cc1c[nH]c2ccccc12)NC(=O)[C@H](CCC(N)=O)NC(=O)[C@H](Cc1c[nH]c2ccccc12)NC(=O)[C@H](CCCNC(=N)N)NC(=O)[C@@H](N)CCCNC(=N)N)C(N)=O)C(N)=O", "assay": "broth microdilution", "system": "ATCC 27853", "setting": "24 h, 37 °C", "MIC": "15 µM"}
{"SMILES": "CC(=O)N[C@H](CCCCN)C(=O)N[C@H](CC(C)C)C(=O)N[C@H](CCCCN)C(=O)N[C@H](CO)C(=O)N[C@H](CC(C)C)C(=O)N[C@H](CC(C)C)C(=O)N[C@H](CCCCN)C(=O)N[C@@H](C(=O)N[C@H](CC(C)C)C(=O)N[C@H](CO)C(=O)N[C@H](CCCCN)C(=O)N[C@H](C)C(=O)N[C@H](CCCCN)C(=O)N[C@H](CCCCN)C(=O)N[C@H](CCCCN)C(=O)N[C@H](CC(C)C)C(=O)N[C@H](CC(C)C)C(=O)N[C@H](CCCCN)C(=O)N[C@@H](C(=O)N[C@H](C)C(=O)N[C@H](CC(C)C)C(=O)N[C@H](CCCCN)C(=O)N[C@H](C)C(=O)N[C@H](CC(C)C)C(=O)N[C@H](CO)C(=O)N[C@H](CCCCN)C(N)=O)[C@H](C)O)[C@H](C)O", "assay": "broth microdilution", "system": "PAO1", "setting": "24 h, 37 °C", "MIC": "1.3 µM"}
{"SMILES": "N=C(N)NCCC[C@@H]1NC(=O)[C@H](CCCNC(=N)N)NC(=O)[C@H](CCCNC(=N)N)NC(=O)[C@H](Cc2c[nH]c3ccccc23)NC(=O)[C@H](Cc2c[nH]c3ccccc23)NC(=O)[C@H](Cc2c[nH]c3ccccc23)NC(=O)[C@H](Cc2c[nH]c3ccccc23)NC(=O)[C@H](CCCNC(=N)N)NC1=O", "assay": "broth microdilution", "system": "PAO1, TSB", "setting": "overnight", "MIC": "31.3 µM"}
{"SMILES": "COc1c(CC=C(C)C)c(O)cc2c1-c1oc3c(CC=C(C)C)c(O)ccc3c1CO2", "system": "ATCC 10145", "MIC": "128 µg/mL"}
{"note": "A few entries again:"}
{"SMILES": "COc1ccc2ccc3c(c2c1)C=[N+]1C2CCCCC2[N+]2=Cc4c(OC)cccc4[O][Au-]21[O]3.F[P-](F)(F)(F)(F)F (stereo not shown)", "assay": "bacterial growth, broth microdilution", "system": "carbapenem-resistant", "setting": "24 h", "MIC": "20 µM"}
{"SMILES": "CC(C)=CCc1cc(-c2coc3cc(O)c(CC=C(C)C)c(O)c3c2=O)ccc1O", "system": "ATCC 10145", "MIC": "128 µg/mL"}
